Published values gathered from unrelated publications.
Each line is one published result; not all experiments were run side by side. Numbers after ± are the reported error.

SMILES	test	system	conditions	scale	AUC(0-inf)
O=C(O)c1ccccc1O	–	humans, both sexes, plasma	oral, 650 mg aspirin, with alcohol, geometric mean	–	238000 ng·h/mL
Cn1cncc1[C@@](N)(c1ccc(Cl)cc1)c1ccc2c(c1)c(-c1cccc(Cl)c1)cc(=O)n2C	–	human, plasma	oral, dose not given, with: ranitidine	–	322 ng·h/mL
Cc1cc(C)c(CNC(=O)c2cc(Cl)c3c(c2C)O[C@@](C)([C@H]2CC[C@H](N(C)C)CC2)O3)c(=O)[nH]1	geometric LS mean	healthy male humans, plasma	oral, 25 mg, alone, fluconazole DDI study reference	–	610 ng·h/mL
Nc1ncn([C@@H]2O[C@H](CO)[C@@H](O)[C@H]2O)c(=O)n1	–	human	100 mg/m^2, cycle 1 day 1, given alone	–	911 ng·h/mL
Cc1cc(Nc2cc3ncccc3c(N[C@@H]3C[C@H]4CC[C@@H](C3)N4CCC#N)n2)n[nH]1	–	human, plasma	1000 mg single dose, mean	–	168 ng·h/mL
NC(=O)c1[nH]cnc1N	–	human patients, plasma	IV infusion over 1 h, 1000 mg/m^2 DTIC, cycle 2 day 1, staggered with co-drug	–	29400 ng·h/mL
C[C@@H](Oc1ccc(S(C)(=O)=O)cc1C(=O)N1C[C@@H]2C[C@]2(c2cc(C(F)(F)F)on2)C1)C(F)(F)F	–	young humans, plasma	oral, 75 mg single dose, geometric mean	–	34.1 µM·h
Cc1ccc(C(=O)N(CCCN)C(c2nc3snc(C)c3c(=O)n2Cc2ccccc2)C(C)C)cc1 (stereo not shown)	–	human	intravenous, 13 mg/day, course day 3 following induction	–	571 ng·h/mL
CCCn1cc(C)c2c(=O)[nH]c(-c3cc(S(=O)(=O)N4CCN(CC)CC4)ccc3OCC)nc21	–	human, plasma	oral, 100 mg	–	212 ± 121 ng·h/mL
C=CC(=O)N(C)CCOc1c(N)ncnc1-c1cc(F)cc(NC(=O)c2ccc(C3CC3)cc2F)c1C	–	human, fasted, whole blood	oral, 60 mg single dose, food effect study, mean	–	201 ng·h/mL
C[C@H](Oc1ccc(Br)cc1-c1ccon1)C(=O)O	–	healthy male humans, plasma	oral, 200 mg once daily, day 1	–	46500 ng·h/mL
Cc1ccc(C)c(OCCCC(C)(C)C(=O)O)c1	–	human, plasma	oral, 600 mg single, before lopinavir/ritonavir, geometric mean	–	104000 ng·h/mL
O=C(NC[C@H]1CN(c2ccc(N3CCOCC3=O)cc2)C(=O)O1)c1ccc(Cl)s1	–	human with normal renal function, plasma	oral, 10 mg single dose, geometric mean	–	1750 ng·h/mL
CN(C)C(=O)c1cc2cnc(Nc3ccc(N4CCNCC4)cn3)nc2n1C1CCCC1	–	human, normal renal function, plasma	oral, 400 mg, single dose, adjusted geometric mean	–	5570 ng·h/mL
COC(=O)N[C@H](C(=O)N1CCC[C@H]1c1nc2cc([C@H]3CC[C@H](c4cc5nc([C@@H]6CCCN6C(=O)[C@@H](NC(=O)OC)[C@@H](C)OC)[nH]c5cc4F)N3c3cc(F)c(N4CCC(c5ccc(F)cc5)CC4)c(F)c3)c(F)cc2[nH]1)[C@@H](C)OC	–	healthy human subjects, plasma	oral, dose not given, with: carbamazepine twice daily	–	1080 ng·h/mL
Cn1cc(-c2ccc(S(=O)(=O)[C@@H]3C[C@@H](C(=O)NC4(C#N)CC4)N(C(=O)C4(C(F)(F)F)CC4)C3)c(C(F)(F)F)c2)cn1	noncompartmental analysis	human, plasma	oral, 100 mg, day 1, with food, geometric mean	–	13600 ng·h/mL
N[C@@H]1c2cccnc2[C@H](OC(=O)N2CCC(n3c(=O)[nH]c4ncccc43)CC2)CC[C@H]1c1cccc(F)c1F	–	human, plasma	oral, 75 mg single dose, alone, arithmetic mean, fluconazole DDI study	–	5280 ng·h/mL
CC(C)n1c(Nc2cccnc2)nc2cnc(Nc3ccc(N4CCN(C)CC4)cc3)nc21	–	human, male, plasma	oral, 100 mg, day 1, single dose alone	–	902 ng·h/mL
CC1(COc2ccc3c(c2)ncn3-c2ccc3cccc(N4CCC(N)CC4)c3n2)COC1	–	human patients, recurrent/progressive HGG or DIPG, serum	oral, 130 mg/m^2, day 1, median	–	5.78 µM·h
N[C@]1(C(=O)O)[C@H]2[C@@H](C[C@@H]1F)[C@@H]2C(=O)O	–	human, plasma	oral, 20 mg single dose, fasted	–	828 ng·h/mL

SMILES	test	system	conditions	scale	AUC(0-inf)
Cn1nnc2c(C(N)=O)ncn2c1=O	–	human patients, plasma	oral, 40 mg/m2, day 5, dose level DL5, median, with: talazoparib 600 µg/m2	–	6380 ng·h/mL
C[C@H]1CN(C(=O)CC#N)[C@]12CCN(c1ncnc3[nH]ccc13)C2	–	healthy human, plasma	oral, 3 mg single, geometric mean	–	66.6 ng·h/mL
CO[C@H]1C[C@@H]2CC[C@@H](C)[C@@](O)(O2)C(=O)C(=O)N2CCCC[C@H]2C(=O)O[C@H]([C@H](C)C[C@@H]2CC[C@@H](OCCO)[C@H](OC)C2)CC(=O)[C@H](C)/C=C(\C)[C@@H](O)[C@@H](OC)C(=O)[C@H](C)C[C@H](C)/C=C/C=C/C=C/1C	–	human patients, plasma	oral, 5 mg single dose, with: vorolanib 100 mg	–	307 ± 168 ng·h/mL
Cn1cncc1[C@@](N)(c1ccc(Cl)cc1)c1ccc2c(c1)c(-c1cccc(Cl)c1)cc(=O)n2C	–	human patients	oral, 300 mg/m2, first dose, cycle 1, initial cohort, median	–	17100 ng·h/mL
CC1(C)CC[C@]2(NC(=O)C(C)(F)F)CC[C@]3(C)[C@H](C(=O)C=C4[C@@]5(C)C=C(C#N)C(=O)C(C)(C)[C@@H]5CC[C@]43C)[C@@H]2C1	–	human	dose not given, with: gemfibrozil	relative to: compound alone	no effect
CC1=C(c2cccc(O)c2)[C@H](c2ccc(OCCN3CC(CF)C3)cc2)Oc2ccc(O)cc21	–	human, plasma	oral, 600 mg single dose, geometric mean	–	1220 ng·h/mL
NC[C@@]1(CC(=O)O)[C@@H]2CC[C@H]3C[C@@H]2[C@@H]1C3	–	human, normal renal function, plasma	oral, 20 mg single dose, geometric mean	–	1790 ng·h/mL
CCOc1cc([C@@H](CS(C)(=O)=O)N2C(=O)c3cccc(NC(C)=O)c3C2=O)ccc1OC	–	healthy human, plasma	oral, 30 mg	–	2470 ng·h/mL
C[C@@H](Cn1ccc(-c2ccc(C#N)c(Cl)c2)n1)NC(=O)c1cc([C@@H](C)O)[nH]n1	–	human, fasted, plasma	oral solution, 300 mg 14C-darolutamide, geometric mean	–	7110 ng⋅h/mL
CN[C@@H](C)C(=O)N[C@H]1CN(S(=O)(=O)c2cccc(S(=O)(=O)N3CC[C@H]4CC[C@@H](C(=O)NC(c5ccccc5)c5ccccc5)N4C(=O)[C@@H](NC(=O)[C@H](C)NC)C3)c2)CC[C@H]2CC[C@@H](C(=O)NC(c3ccccc3)c3ccccc3)N2C1=O	LC-MS/MS, noncompartmental	human, plasma	30 mg, cycle 1 day 1	–	855 ± 400 ng·h/mL
NC(CO)(CO)CCc1ccc(Sc2cccc(OCc3ccccc3)c2)cc1Cl	–	human, whole blood	oral, 3 mg, with: itraconazole 200 mg once daily	–	162 ng·h/mL
CNC(=O)c1ccc(-c2cnc3ncc(Cc4ccc5ncccc5c4)n3n2)cc1F	–	human mild hepatic impairment	oral, 200 mg single dose, covariate-adjusted geometric mean	–	5750 ng·h/mL
CN1C(=O)[C@@H](NC(=O)c2nnc(Cc3ccccc3)[nH]2)COc2cccnc21	–	healthy human, fasted, plasma	oral, 10 mg single dose, geometric mean	–	1800 ng·h/mL
Nc1c2c(cc3c1CCC3)CCC2	–	human, plasma	oral, 150 mg of GDC-2394, single ascending dose	–	153 ng·h/mL
CN(C(=O)C(C)(C)c1cc(C(F)(F)F)cc(C(F)(F)F)c1)c1cnc(N2C[C@H]3COCCN3C[C@H]2CO)cc1-c1ccc(F)cc1[14CH3]	LC-MS/MS	human, plasma	oral, 120 mg	–	6620 ng·h/mL
[H]/N=C(/N)c1ccc(NCc2nc3cc(C(=O)N(CCC(=O)O)c4ccccn4)ccc3n2C)cc1	–	healthy humans, plasma	oral, 75 mg, alone, geometric mean	–	522 ng·h/mL
N#C[C@H](C[C@@H]1CCCNC1=O)NC(=O)[C@H](CC1CC1)NC(=O)c1cc2cccc(Cl)c2[nH]1	–	human	oral, 150 mg once daily, day 1	–	3090 ng·h/mL
CC(C)=CCC/C(C)=C/CC/C(C)=C/CC[C@@](C)(O)CCC1=C(C)C(=O)C(C)=C(C)C1=O	–	healthy human, plasma	oral, 400 mg, single dose, alone	–	4240 ng·h/mL
O=C(O)CCC(=O)O.[2H]C([2H])([2H])Oc1cc(C)c2[nH]ccc2c1CN1CC[C@@H](C2CC2)C[C@H]1c1ccc(C(=O)O)cc1	LC-MS/MS, geometric mean	human, plasma	600 mg, single dose, fasting	–	227000 ng·h/mL
Nc1ccn([C@@H]2O[C@H](CO)[C@@H](O)C2(F)F)c(=O)n1	HPLC-UV	human, plasma	intravenous, 800 mg/m^2, median, after paricalcitol	–	16600 ng·h/mL

For quick reference, copied from above:
SMILES	test	system	conditions	scale	AUC(0-inf)
Cn1cc(-c2ccc(S(=O)(=O)[C@@H]3C[C@@H](C(=O)NC4(C#N)CC4)N(C(=O)C4(C(F)(F)F)CC4)C3)c(C(F)(F)F)c2)cn1	noncompartmental analysis	human, plasma	oral, 100 mg, day 1, with food, geometric mean	–	13600 ng·h/mL
C=CC(=O)N(C)CCOc1c(N)ncnc1-c1cc(F)cc(NC(=O)c2ccc(C3CC3)cc2F)c1C	–	human, fasted, whole blood	oral, 60 mg single dose, food effect study, mean	–	201 ng·h/mL
N[C@@H]1c2cccnc2[C@H](OC(=O)N2CCC(n3c(=O)[nH]c4ncccc43)CC2)CC[C@H]1c1cccc(F)c1F	–	human, plasma	oral, 75 mg single dose, alone, arithmetic mean, fluconazole DDI study	–	5280 ng·h/mL
